Measurements of several laboratories.
Each numbered part is a random draw from the data of one study; scales do not carry over between parts. Changes are numbered by the printed parent chain.

Sample 1 — method: universal PBM; form: double-stranded DNA, one strand shown; matrix: in vitro; concentration: 600 nM; reading: higher = stronger binding
Target: Sal-like protein 4, full length isoform A (SALL4, Homo sapiens, UniProt Q9UJQ4, residues 1-1053)
UniProt Q9UJQ4, sequence (whole entry, looked up): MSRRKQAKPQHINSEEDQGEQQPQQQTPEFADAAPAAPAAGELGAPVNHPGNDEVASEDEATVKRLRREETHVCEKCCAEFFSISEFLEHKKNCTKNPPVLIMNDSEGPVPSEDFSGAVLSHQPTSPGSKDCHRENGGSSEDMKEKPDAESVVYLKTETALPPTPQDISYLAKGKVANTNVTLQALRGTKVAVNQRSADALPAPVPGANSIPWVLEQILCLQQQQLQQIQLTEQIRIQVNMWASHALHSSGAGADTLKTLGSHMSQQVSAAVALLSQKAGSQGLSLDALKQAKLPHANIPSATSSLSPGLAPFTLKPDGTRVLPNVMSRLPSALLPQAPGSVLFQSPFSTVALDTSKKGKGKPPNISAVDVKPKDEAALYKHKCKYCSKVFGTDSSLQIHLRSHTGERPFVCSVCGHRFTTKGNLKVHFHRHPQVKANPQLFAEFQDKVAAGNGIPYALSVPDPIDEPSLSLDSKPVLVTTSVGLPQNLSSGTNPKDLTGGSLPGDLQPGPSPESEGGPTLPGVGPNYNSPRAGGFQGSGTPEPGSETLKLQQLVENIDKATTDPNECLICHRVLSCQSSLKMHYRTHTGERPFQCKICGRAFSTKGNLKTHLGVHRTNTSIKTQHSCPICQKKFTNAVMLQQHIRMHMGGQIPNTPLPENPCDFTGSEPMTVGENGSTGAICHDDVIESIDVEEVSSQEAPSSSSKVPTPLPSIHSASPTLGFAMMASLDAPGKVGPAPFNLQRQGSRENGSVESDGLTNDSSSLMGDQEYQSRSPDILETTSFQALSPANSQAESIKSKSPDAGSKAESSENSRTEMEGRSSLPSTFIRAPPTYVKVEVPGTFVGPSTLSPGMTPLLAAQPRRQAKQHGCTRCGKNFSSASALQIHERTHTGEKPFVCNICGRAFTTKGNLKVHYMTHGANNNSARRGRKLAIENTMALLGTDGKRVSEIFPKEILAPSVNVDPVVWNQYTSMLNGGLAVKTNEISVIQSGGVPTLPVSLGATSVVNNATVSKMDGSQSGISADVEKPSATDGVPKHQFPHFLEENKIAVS
Notes: 8-mer, flanks averaged, mean of replicates
Oligonucleotide | E-score
ATCCCCAA | -0.0206
AGCTAGCT | -0.0169
AGGGTCAG | -0.198
AGTAAACG | 0.0203
ATCCACGG | -0.185
ATGTGGCC | -0.0942
CACAAGGA | -0.0419
AGTCAACA | 0.169
CGTTGAGA | -0.125
ACACTCTC | 0.0527
CCTCGACG | -0.352
CCTATGGA | -0.0441
CTATTAAC | 0.234
GTGCAATA | 0.196
ACGCCTAC | -0.262
ACATACTG | 0.0473
CTCGGGAA | -0.231
CATGTTCA | 0.107
CCGGCCCC | -0.446
CCCAAATA | 0.0456
TACACCGA | -0.133
AACACGGG | -0.183
AATCCTCA | 0.114
ACAACCGA | 0.00587
ACCCTCAT | -0.094

Sample 2 — method: protein binding microarray; form: double-stranded DNA, one strand shown; matrix: in vitro; concentration: not given; baseline: not given; reading: higher = stronger binding
Target: Histone acetyltransferase KAT6A, winged helix 1, GST fusion (KAT6A, Homo sapiens, UniProt Q92794, residues 1-85)
Notes: 8-mer, flanks averaged, mean of 2 arrays, mostly near background
Residues (chain): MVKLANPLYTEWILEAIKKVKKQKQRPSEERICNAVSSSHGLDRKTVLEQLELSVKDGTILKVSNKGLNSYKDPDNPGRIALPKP
Oligonucleotide | E-score
AACTCCAA | -0.14
GAGACATC | -0.0466
AAGTAATT | -0.0944
AGTTGCTA | -0.0664
CCTGGCCA | -0.0855
GTGGTATA | -0.219
CTGTCTTA | 0.0637
CGTCGAAC | -0.0426
CACCACCA | -0.279
ACCCTTGC | -0.0628
GAGGGTTA | -0.0658
CGAACTAA | -0.191
ACCAACCT | -0.105
GAAAGGGC | -0.0412
CGGTATAA | 0.0736
CCGATCGA | 0.112
AACCCTTC | -0.0192
GTCCTAAC | -0.0628
ATAACCTC | -0.0883
CTTTTGAC | -0.116
ACTCATCG | 0.0518
AACAGATA | -0.215
CGAAGTCG | 0.0651
GAGCATGA | -0.143
CATTACGC | 0.185

Sample 3 — target: CCNB1, cyclin fold, Cln2 fusion (human); method: yeast growth competition, sequencing; matrix: yeast; notes: weak parent motif; baseline: not given; reading: higher = stronger binding
Starting sequence: RBL1 docking peptide (human); GSAKRRLFGEDPP
Substitution | normalised enrichment score
D11K | 0.722
A3H | 0.733
L7Y | 0.198
G9A | 1.83
P12C | 0.223
R5P | 0.314
A3M | -1.18
S2P | 0.998
K4I | 1.06
K4F | 1.17
R5A | 0.752
R6Q | -0.235
P12R | 0.764
S2C | 1.69
P13E | -0.122
A3Q | 0.357
P13V | 1.2
E10K | 0.225
K4R | 0.328
R6H | 0.356
P12K | 0.98
F8E | -0.281
L7Q | 1.22
L7A | 0.393
G1Y | 2.13

Sample 4 — method: RNA Bind-n-Seq; form: RNA; matrix: in vitro; concentration: not given; baseline: input RNA pool; reading: higher = stronger binding
Target: RING finger protein unkempt homolog, zinc fingers 1-6, GST-SBP tag (UNK, Homo sapiens, UniProt Q9C0B0, residues 30-357)
UniProt Q9C0B0, sequence (30-357, looked up): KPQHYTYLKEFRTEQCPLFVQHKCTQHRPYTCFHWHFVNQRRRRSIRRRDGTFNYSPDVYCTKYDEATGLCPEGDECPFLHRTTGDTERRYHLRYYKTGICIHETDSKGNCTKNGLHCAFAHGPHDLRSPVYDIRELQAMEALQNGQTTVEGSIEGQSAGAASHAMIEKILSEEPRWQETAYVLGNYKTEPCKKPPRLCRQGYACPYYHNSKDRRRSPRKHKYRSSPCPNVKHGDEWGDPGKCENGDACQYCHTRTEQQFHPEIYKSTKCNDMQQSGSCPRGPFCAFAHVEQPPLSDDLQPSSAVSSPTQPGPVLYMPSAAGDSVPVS
Notes: RNA with constant flanks, human-mouse chimeric sites, ends assumed
Constant ends, left off below: GGGAGUUCUACAGUCCGACGAUC … CAACAGAGGAUUGAGCAUCA
Oligonucleotide | bound/input enrichment
CUGUGACUGAUGGCAGCUACCUGAGUGGCAGCUGAAGUUGACUCCCUCCCCUUCCCUGAACCCCCCCCCACUGCCCCCCCAUCCCCCAGUGUCGGCUGAGAUGUUGCCUCUGCACGGUUC | 1.32 ratio
UUCAAAGAAAAGGGCAGCUGUGUCAUUUCAUAAGUAAAACUGCAUCCGGGAAAUUCUGUUCUUUUGUUUAAUUUUCCCCCAAAUGAAGCCAAAGUGUGUGUUGAAGAACUGAGAAAAAAU | 0.171 ratio
UCGGAUGCUGUGCUGGGUCACUUUUCAUAUCCAGAUCCUUCACAGUGGACAGAUGAAGAACUGGGAAUCCCUCCUGAUGAUGAAGACUGACACUGUAGACUCAGCCUACGAGUAGGAGCA | 0.242 ratio
GUAAUGUUUAUUCAUUUAACUUAUUUUUAUAGCUAGAUAAAUAUUGUUAGUCUUAGUCAAUAGCUCACAUUUUUUGAGAAGCAUGCCCUCCCUGUCCAUUUGUCUUAUAACAUGACCCAG | 41.1 ratio
GUAUACGGUUAUCGAGGAAAGGACUGUAGAGCGAAUGUAUACCUGCUUCCCACAGGGGAGAUAGUUUAUUUUAUCGCCUCAGUGGUAGUACUAUUUAAUUAUGAGGAGAGAACUCAGCGA | 3.4 ratio
GAGUCGAGCAAACUUGAAACAAUUCGUUAUCUUGCAGCCUCAGUGUUCACUUGCUUGGCGAUAGCAUUGGGGUUUUAUAGGUUCUGGGGAAGUAGUAUUAAUGCUCACUGCCGCUGCUGC | 2.27 ratio
UGGCGCCUGCGCUCCCCACUCGUGUUUUUAAGUGUAUUUUUAUAAGACAUGUGUAUUUGUAAUAGAUCUUUUGUUACAUAAUGCUGAAAUGCUACUGGAGAUUAUGAAAAAUGUUUCAAU | 0.238 ratio
CGCUUGGAUGAGGCUGGUGUCACAGAUGAAGUGCUAGAUUCUGCCAUGCAAGCCUUCCUUCUGGAGGUCAUUGUUAAGCAUGGGGAGCCGGCACCUUAUUUAUGUAACAAAGAUCCGUUU | 0.129 ratio

Some of these lines once more (sample 1):
Oligonucleotide | E-score
ACGCCTAC | -0.262
ACATACTG | 0.0473
CTCGGGAA | -0.231
CATGTTCA | 0.107
CCGGCCCC | -0.446
CCCAAATA | 0.0456
TACACCGA | -0.133
